Measurements from different studies.
Each line is one published result; not all experiments were run side by side. ± marks the error that the study gave.
Organism: Plasmodium falciparum

| Compound | assay | test system | setting | how to read | endpoint | value |
| --- | --- | --- | --- | --- | --- | --- |
| C[C@H](Oc1ccc(C(=O)c2ccc(F)cc2)cc1)C(=O)N1CCc2ccc(C(F)(F)F)cc21 | parasite growth |  |  |  | EC50 | 22.5 ± 6 nM |
| O[C@]12C=C(c3nccc4c3[nH]c3ccccc34)[C@@H]3CCN(CCCC/C=C\CC1)C[C@@]31C[C@@H]3/C=C\CCCCN3[C@H]12 |  | D6, chloroquine-sensitive |  | baseline: compound over 4 | IC50 ratio | > 3 fold |
| CCCCCOc1ccc(-c2ccc3ncnc(Nc4ccc(OCc5cccc(F)c5)c(Cl)c4)c3c2)c(F)c1F | parasite growth, SYBR Green | D6 | blood stage |  | EC50 | > 15000 nM |
| Cc1nc2ccc(-c3ccc(OC(F)(F)F)cc3)cc2c(O)c1C#N | parasite growth, SYBR Green | 3D7 | 72 h |  | EC50 | 2170 nM |
| O=S(=O)(c1cccc(-c2ccc3ncnc(Nc4ccc(OCc5cccc(F)c5)c(Cl)c4)c3c2)c1)N1CCCC1 | parasite growth, SYBR Green fluorescence | C235 (TM91C235), drug-resistant |  |  | EC50 | 300 nM |
| Nc1ncnc2c1c(-c1ccc(Oc3ccccc3)cc1)cn2C1CCCC1 |  | FVO, purified merozoites, erythrocytes | 25 µM |  | merozoite invasion | 47% |
| CCN(CC)CCCC(C)Nc1ccnc2cc(Cl)ccc12 (stereo not drawn) | parasite growth | CAM3 REV |  |  | EC50 | 602 ± 187 nM |
| COc1ccccc1-n1c(SCC(=O)Nc2ccccc2F)nc2cccnc21 | parasite growth, SYBR Green | 3D7 |  |  | EC50 | 143 nM |
| Fc1cccc(COc2ccc(Nc3ncnc4ccc(-c5cccc(CN6CCCCC6)c5)cc34)cc2Cl)c1 | parasite growth, SYBR Green fluorescence | C235 (TM91C235), drug-resistant |  |  | EC50 | 65 nM |
| COc1ccc2cc1Oc1cc3c(cc1OC)CCN(C)C3Cc1ccc(cc1)Oc1c(O)c(OC)cc3c1C(C2)N(C)CC3 (stereo not drawn) | parasite growth, inhibitor, SYBR Green I | Cam3.1 R539T (MRA-1240) |  |  | IC50 | 78 nM |
| CCC1(CC)CC(=O)N(C2CCOc3ccc(C(=O)NC4CC(C)(C)Oc5ccccc54)cc32)C(=N)N1 (stereo not drawn) | parasite growth | Dd2-ATV |  |  | EC50 | 0.4 ± 0.1 nM |
| Cc1nc2c(C#N)cccc2n1-c1ccc(C(=O)NC2CC2)s1 | parasite growth, SYBR Green | 3D7 |  |  | EC50 | 6.73 nM |
| O=S(=O)(c1ccc(-c2ccc3ncnc(Nc4ccc(OCc5cccc(F)c5)c(Cl)c4)c3c2)cc1)N1CCOCC1 | parasite growth, SYBR Green fluorescence | W2, drug-resistant |  |  | EC50 | 590 nM |
| COc1cc2c3cc1Oc1cc(ccc1O)CC1c4c(cc(OC)c(O)c4Oc4ccc(cc4)CC3N(C)CC2)CCN1C (stereo not drawn) | erythrocyte invasion |  | 17 µM |  | inhibition | 100% |
| COCCN(C)C(C)C(=O)NC(Cc1ccc(-c2ccccc2)cc1)B(O)O (stereo not drawn) |  | compound-selected recrudescent clone 1E9_F3 | 72 h |  | IC50 | 8220 ± 650 nM |
| C[C@H]1Cc2c([nH]c3cc(Cl)c(F)cc23)[C@@]2(N1)C(=O)Nc1ccc(Cl)cc12 | parasite growth | CAM3 REV |  |  | EC50 | 1.4 ± 0.2 nM |
| Cc1cc(Cl)ccc1OC(C)C(=O)N1CCc2ccccc21 (stereo not drawn) | parasite growth, SYBR Green | 3D7 |  |  | EC50 | 126 nM |
| COC(=O)C1=CO[C@@H](C)[C@@H]2Cn3ccc4c5ccccc5nc-4c3C[C@H]12 |  | C2B, atovaquone-resistant | 72 h | baseline: C2B over 3D7 | resistance index | 0.6 |
| COc1ccccc1-n1ccnc1SCC(=O)Nc1cc(C(F)(F)F)ccc1Cl | parasite growth | Dd2 |  |  | EC50 | 2.27 ± 0.54 nM |
| O=S(=O)(c1ccc(-c2ccc3ncnc(Nc4ccc(OCc5cccc(F)c5)cc4)c3c2)cc1)N1CCOCC1 | parasite growth, SYBR Green fluorescence | C235 (TM91C235), drug-resistant |  |  | EC50 | 850 nM |
| CC(NC(=O)c1cccc(C(c2ccccc2)N2C(=N)NC(C)(C(C)C)CC2=O)c1)c1ccccc1 (stereo not drawn) | parasite growth | K1 |  |  | EC50 | 12.3 nM |
| O=S(=O)(c1cccc(-c2ccc3ncnc(Nc4ccc(OCc5cccc(F)c5)c(Cl)c4)c3c2)c1)N1CCCCC1 | parasite growth, SYBR Green fluorescence | C235 (TM91C235), drug-resistant |  |  | EC50 | 330 nM |
| OC(c1cc(C(F)(F)F)nc2c(C(F)(F)F)cccc12)C1CCCCN1 (stereo not drawn) | parasite growth | 3D7 |  |  | EC50 | 22.5 ± 5.6 nM |
| Fc1cccc(COc2ccc(Nc3ncnc4ccc(-c5ccc(N6CCCCC6)cc5)cc34)cc2Cl)c1 | parasite growth, SYBR Green | D6 | blood stage |  | EC50 | 580 nM |
| Cc1cc(Nc2ccc(Cl)cc2)n2nc(C(F)(F)F)nc2n1 | parasite growth | Dd2 |  |  | EC50 | 35.6 ± 12 nM |
| O=C1C(O)=C([C@H]2CC[C@H](c3ccc(Cl)cc3)CC2)C(=O)c2ccccc21 | parasite growth | CAM3 REV |  |  | EC50 | 0.7 ± 0.3 nM |
| O=C(c1cncc(-c2ccc3ncnc(Nc4ccc(OCc5cccc(F)c5)c(Cl)c4)c3c2)c1)N1CCOCC1 | parasite growth, SYBR Green fluorescence | W2, drug-resistant |  |  | EC50 | 630 nM |
